Results gathered from unrelated publications.
Lines come from different studies, so protocols differ. ± gives the spread as reported. Converted amounts (≈) assume the structure as drawn.

NC(=O)c1ncn([C@@H]2O[C@H](CO)[C@@H](O)[C@H]2O)n1  inhibition (Cucumber mosaic virus; inactivation activity; host plant; 500 µg/mL): 52.4%
O=c1[nH]c(=O)c2ncn(CC(CO)OCP(=O)(O)O)c2[nH]1 (racemic)  EC50 (herpes simplex virus 1; cytopathic effect; HEL, KOS): 39000 ± 27000 nM
CC1(C)SC2C(NC(=O)C(NC(=O)C3=C(O)C(Cc4ccc(O)cc4)NC3=O)c3ccccc3)C(=O)N2C1C(=O)O (centres unmarked)  MIC (Acinetobacter baumannii; microbial growth, broth dilution; ATCC19606): 100 µg/mL (≈ 172 µM)
CC[C@@H](C(=O)[C@@H](C)[C@@H](O)[C@H](C)CCc1ccc(C)c(O)c1C(=O)O)[C@H]1O[C@](CC)([C@H]2CC[C@](O)(CC)[C@H](C)O2)C[C@@H]1C  invasion rate (Eimeria tenella; MDBK, sporozoites; maximum non-toxic concentration; relative to: DMSO): 39.3%
Nc1ccn(C[C@@H](CO)OCP(=O)(O)O)c(=O)n1  EC50 (herpes simplex virus 1; cytopathic effect; HEL, KOS; 72 h): 0.63 ± 0.36 µg/mL
C[C@H]1c2cccc(O)c2C(=O)C2=C(O)[C@]3(O)C(=O)C(C(N)=O)=C(O)[C@@H](N(C)C)[C@@H]3[C@@H](O)[C@@H]21  FIC index (Pseudomonas aeruginosa; checkerboard broth microdilution; clinical isolate 17-99; added: magainin II): 2
CC(C)C1NC(=O)C(C(=O)NC(C(=O)NC2C(=O)N3C2SC(C)(C)C3C(=O)O)c2ccccc2)=C1O (centres unmarked)  MIC (Escherichia coli; broth microdilution; BW25113, Mueller-Hinton broth; 18 h, without clavulanic acid): 100 µg/mL
CC[C@H]1OC(=O)[C@H](C)[C@@H](O[C@H]2C[C@@](C)(OC)[C@@H](O)[C@H](C)O2)[C@H](C)[C@@H](O[C@@H]2O[C@H](C)C[C@H](N(C)C)[C@H]2O)[C@](C)(OC)C[C@@H](C)C(=O)[C@H](C)[C@@H](O)[C@]1(C)O  FIC index (Pseudomonas aeruginosa; checkerboard; ATCC 27853; added: magainin II): 1
Cc1ccc(-c2cn([C@@H]3O[C@H](CO)[C@@H](O)[C@H]3O)c3ncnc(N)c23)cc1C  EC50 (Trichomonas vaginalis; resorufin; G3, metronidazole-sensitive; 24 h + 2 h, 2% O2): 430 ± 8 nM
CC(C)(O/N=C(\C(=O)N[C@@H]1C(=O)N2C(C(=O)[O-])=C(C[n+]3ccccc3)CS[C@H]12)c1csc(N)n1)C(=O)O  FIC index (Pseudomonas aeruginosa; checkerboard; ATCC 27853; added: magainin II): 0.25
Cc1ccc(-c2cn([C@@H]3O[C@H](CO)[C@@H](O)[C@H]3O)c3ncnc(N)c23)cc1  EC50 (Trichomonas vaginalis; resorufin; G3, metronidazole-sensitive; 24 h + 2 h, 2% O2): 68 ± 9 nM
CC1(C)SC2C(NC(=O)C(NC(=O)C3=C(O)C(Cc4ccc([N+](=O)[O-])cc4)NC3=O)c3ccccc3)C(=O)N2C1C(=O)O (centres unmarked)  MIC (Acinetobacter baumannii; microbial growth, broth dilution; ATCC19606): 50 µg/mL (≈ 82 µM)
Nc1ncnc2c1c(-c1ccc3ccccc3n1)cn2C1OC(CO)C(O)C1O (centres unmarked)  EC50 (Trichomonas vaginalis; resorufin; G3, metronidazole-sensitive; 24 h + 2 h, 2% O2): 2270 ± 272 nM
CC1(C)SC2C(NC(=O)C(NC(=O)C3=C(O)C(c4ccccc4)NC3=O)c3ccccc3)C(=O)N2C1C(=O)O (centres unmarked)  MIC (Escherichia coli; broth microdilution; BW25113, Mueller-Hinton broth): 100 µg/mL (≈ 182 µM)
O=C1NC(=S)S/C1=C\c1cn(Cc2ccccc2)c2ccc([N+](=O)[O-])cc12  IC50 (Trypanosoma equiperdum; trypomastigotes, IVM-t1): > 73000 nM
C[C@@H](O)[C@H]1C(=O)N2C(C(=O)O)=C(S[C@@H]3CN[C@H](C(=O)N(C)C)C3)[C@H](C)[C@H]12  FIC index (Pseudomonas aeruginosa; checkerboard broth microdilution; clinical isolate 17-99; added: ranalexin): 0.75
Nc1ncnc2c1c(-c1ccc(F)cc1)cn2[C@@H]1O[C@H](CO)[C@@H](O)[C@H]1O  EC50 (Trichomonas vaginalis; resorufin; G3, metronidazole-sensitive; 24 h + 2 h, 2% O2): 110 ± 34 nM
CN(C)c1c(Cc2cccc3ccccc23)cc(=O)n2c1SCC2C(=O)Nc1ccccc1 (centres unmarked)  inhibition (Chlamydia trachomatis; infectivity, second cycle; HeLa, serovar L2; 2.5 µM, 48 h; relative to: DMSO): ~90%
Nc1ncnc2c1c(-c1ccc(C(F)(F)F)cc1)cn2[C@@H]1O[C@H](CO)[C@@H](O)[C@H]1O  EC50 (Trichomonas vaginalis; resorufin; G3, metronidazole-sensitive; 24 h + 2 h, 2% O2): 180 ± 50 nM
Nc1ncnc2c1ncn2CCOCP(=O)(O)O  EC50 (herpes simplex virus 2; cytopathic effect; HEL, G): 3.6 ± 0.1 µg/mL
C[C@H]1[C@H](C)CC[C@]2(CO)CC[C@]3(C)C(=CC[C@@H]4[C@@]5(C)CC[C@H](O)C(C)(C)[C@@H]5CC[C@]43C)[C@H]12  viability (Eimeria tenella; sporozoites; 100 µM, 24 h; relative to: DMSO): 86.6%
CCOC(=O)c1c(N)csc1-c1cn(-c2ccccc2)nc1-c1ccc(C)cc1  MIC (Klebsiella pneumoniae; broth microdilution; clinical urinary isolate; compound gamma-irradiated 1 kGy): 0.25 ± 0.5 µg/mL (≈ 0.62 µM)
Cn1cnc(-c2cn(C3OC(CO)C(O)C3O)c3ncnc(N)c23)c1 (centres unmarked)  EC50 (Trichomonas vaginalis; resorufin; G3, metronidazole-sensitive; 24 h + 2 h, 2% O2): 2100 ± 336 nM
CC(C)C[C@H](NC(=O)[C@H](CCc1ccccc1)NC(=O)CN1CCOCC1)C(=O)N[C@@H](Cc1ccccc1)C(=O)N[C@@H](CC(C)C)C(=O)[C@@]1(C)CO1  minimum significant inhibitory concentration (Babesia divergens; parasite growth, parasitemia by blood smear; ex vivo blood culture; 48 h; relative to: DMSO): ≥ 25 nM
CO/N=C(\C(=O)N[C@@H]1C(=O)N2C(C(=O)O)=C(CSc3nc(=O)c(=O)[nH]n3C)CS[C@H]12)c1csc(N)n1  FIC index (Pseudomonas aeruginosa; checkerboard broth microdilution; clinical isolate 17-99; added: magainin II): 0.25
CC(C)CC1NC(=O)C(C(=O)NC(C(=O)NC2C(=O)N3C2SC(C)(C)C3C(=O)O)c2ccccc2)=C1O (centres unmarked)  MIC (Acinetobacter baumannii; microbial growth, broth dilution; ATCC19606): 50 µg/mL (≈ 94.2 µM)
O=C(CCc1ccc(O)cc1)c1c(O)cc(O)cc1O[C@@H]1O[C@H](CO)[C@@H](O)[C@H](O)[C@H]1O  invasion rate (Eimeria tenella; MDBK, sporozoites; maximum non-toxic concentration; relative to: DMSO): 87.2%
CC(=O)N[C@@H](C)C(=O)N[C@@H](CCC(N)=O)C(=O)N[C@@H](CCCCN)C(=O)N[C@@H](CC(C)C)C(=O)N[C@@H](CC(C)C)C(=O)N[C@@H](CCCCN)C(=O)N[C@@H](CCCCN)C(=O)N[C@@H](Cc1ccccc1)C(=O)N[C@@H](CO)C(=O)N[C@@H](CC(C)C)C(=O)N[C@@H](CC(C)C)C(=O)N[C@@H](CCCCN)C(=O)N1CCC[C@H]1C(=O)N[C@@H](Cc1c[nH]c2ccccc12)C(=O)N[C@@H](C)C(=O)O  inhibition (Pseudomonas aeruginosa; spermidine uptake; PA14; 10 µM, 45 min pretreatment, 35 °C, added: [14C]spermidine, 15 min): 54%
Nc1ncnc2c1c(-c1ccc3ccccc3c1)cn2[C@@H]1O[C@H](CO)C[C@H]1O  EC50 (Trichomonas vaginalis; resorufin; G3, metronidazole-sensitive; 24 h + 2 h, 2% O2): 2050 ± 253 nM
Cc1ccc(Cn2cc(/C=C3\SC(=S)NC3=O)c3cc([N+](=O)[O-])ccc32)cc1  IC50 (Trypanosoma equiperdum; trypomastigotes, IVM-t1): > 70000 nM
CCN1CCN(C(=O)N[C@@H](C(=O)N[C@@H]2C(=O)N3[C@@H]2SC(C)(C)[C@@H]3C(=O)O)c2ccccc2)C(=O)C1=O  FIC index (Pseudomonas aeruginosa; checkerboard; ATCC 27853; added: magainin II): 0.25
COc1ccc(-c2cn([C@@H]3O[C@H](CO)C[C@H]3O)c3ncnc(N)c23)cc1Cl  EC50 (Trichomonas vaginalis; resorufin; G3, metronidazole-sensitive; 24 h + 2 h, 2% O2): 3060 ± 410 nM

Some of these lines once more:
CC[C@H]1OC(=O)[C@H](C)[C@@H](O[C@H]2C[C@@](C)(OC)[C@@H](O)[C@H](C)O2)[C@H](C)[C@@H](O[C@@H]2O[C@H](C)C[C@H](N(C)C)[C@H]2O)[C@](C)(OC)C[C@@H](C)C(=O)[C@H](C)[C@@H](O)[C@]1(C)O  FIC index (Pseudomonas aeruginosa; checkerboard; ATCC 27853; added: magainin II): 1
Cc1ccc(-c2cn([C@@H]3O[C@H](CO)[C@@H](O)[C@H]3O)c3ncnc(N)c23)cc1C  EC50 (Trichomonas vaginalis; resorufin; G3, metronidazole-sensitive; 24 h + 2 h, 2% O2): 430 ± 8 nM
CC(C)(O/N=C(\C(=O)N[C@@H]1C(=O)N2C(C(=O)[O-])=C(C[n+]3ccccc3)CS[C@H]12)c1csc(N)n1)C(=O)O  FIC index (Pseudomonas aeruginosa; checkerboard; ATCC 27853; added: magainin II): 0.25
Cc1ccc(-c2cn([C@@H]3O[C@H](CO)[C@@H](O)[C@H]3O)c3ncnc(N)c23)cc1  EC50 (Trichomonas vaginalis; resorufin; G3, metronidazole-sensitive; 24 h + 2 h, 2% O2): 68 ± 9 nM
